# Results pooled from the literature.
# Several values in a cell are separate wells, animals, samples, runs or records. Numbers after ± are the reported error.
Compound,assay,system,setting,how to read,endpoint,value
N=C(N)NCc1ccc(C(=O)NCCCC[C@H](NC(=O)N[C@@H](CCC(=O)O)C(=O)O)C(=O)O)cc1[131I],,"SCID mouse, PC-3 xenografts, blood",14 h,,tissue uptake,0.03 ± 0.01 %ID/g
CN[C@](C)(C[18F])C(=O)O,,"SCID mouse MDA-MB-468 xenograft, brain","30 min, post injection",,tissue uptake,0.3 ± 0.1 %ID/g
CC(C)C[C@H](NC(=O)[C@H](CCCCN)NC(=O)[C@H](C)NC(=O)[C@@H]1CCCN1C(=O)[C@@H]1CCCN1C(=O)[C@H](CCCCN)NC(=O)[C@H](CCCCN)NC(=O)[C@H](CO)NC(=O)[C@H](CCC(=O)O)NC(=O)[C@H](CCCCN)NC(=O)[C@H](CCCNC(=N)N)NC(=O)[C@H](CCC(N)=O)NC(=O)[C@H](CCC(N)=O)NC(=O)[C@@H](NC(=O)[C@H](CCCNC(=N)N)NC(=O)[C@H](CCC(N)=O)NC(=O)[C@H](Cc1cnc[nH]1)NC(=O)[C@H](CCC(=O)O)NC(=O)[C@@H]1CCCN1C(=O)[C@H](CO)NC(=O)[C@H](CC(C)C)NC(=O)[C@H](Cc1ccccc1)NC(=O)[C@H](CO)NC(=O)[C@H](CO)NC(=O)CN)C(C)C)C(=O)N[C@@H](CCC(N)=O)C(=O)N1CCC[C@H]1C(=O)N[C@@H](CCCNC(=N)N)C(=O)O,ELISA,"healthy humans, both sexes, plasma","intravenous infusion, 4 µg/kg/h, 210 min",,clearance,1.7 ± 0.9 mL/min/kg
CSCC[C@H](NC(=O)CNC(=O)[C@H](CC(=O)O)NC(=O)[C@@H](NC(=O)[C@@H](NC(=O)[C@@H](NC(=O)CNC(=O)[C@H](CCC(N)=O)NC(=O)[C@H](CCSC)NC(=O)[C@H](CC(=O)O)NC(=O)[C@H](C)NC(=O)[C@H](C)NC(=O)[C@@H](NC(=O)[C@H](CO)NC(=O)[C@@H](N)CC(C)C)[C@@H](C)O)C(C)C)C(C)C)[C@@H](C)O)C(=O)N[C@@H](C)C(=O)N[C@@H](CO)C(=O)NCC(=O)N[C@@H](CC(C)C)C(=O)N[C@@H](CC(=O)O)C(=O)N[C@@H](CCCCN)C(=O)N[C@@H](CC(=O)O)C(=O)N[C@@H](Cc1ccc(O)cc1)C(=O)N[C@@H](CC(C)C)C(=O)N[C@@H](CCCCN)C(=O)N1CCC[C@H]1C(=O)N[C@@H](CC(=O)O)C(=O)N[C@@H](CC(=O)O)C(=O)O,,"human patients, serum","intravenous infusion, 4 mg/kg",,distribution half-life,50.4 s
COc1cc2ccnc(Cc3ccc(O[11CH3])c(OC)c3)c2cc1OC,,"Sprague-Dawley rat, cerebellum","i.v., 30 min",,brain uptake,0.045 %ID/g
CN(C)C(CNC(=O)Nc1cc(C(F)(F)F)ccc1N1CCOCC1)c1ccncc1 (stereo not shown),,"mouse, serum","intraperitoneal, 120 mg/kg single dose",,serum cholesterol,72 mg/dL
CCCC[C@H](NC(=O)CN1CCC(NC(=O)CN2CCN(CC(=O)O)CCN(CC(=O)O)CCN(CC(=O)O)CC2)CC1)C(=O)N[C@H]1CC(=O)NCCCC[C@@H](C(N)=O)NC(=O)[C@H](Cc2c[nH]c3ccccc23)NC(=O)[C@H](CCCNC(=N)N)NC(=O)[C@@H](Cc2ccccc2)NC(=O)[C@H](Cc2c[nH]cn2)NC1=O [gallium-68 labelled],PET/CT,"human metastatic melanoma patients, brain","intravenous, 150 MBq, 60 min",,SUVmax,0.05
COc1cc(C(=O)NCCOCCOCCOCCNC(=O)c2ccc([18F])nc2)ccc1NC(=O)C1NC(CC(C)(C)C)C(C#N)(c2ccc(Cl)cc2F)C1c1cccc(Cl)c1F (stereo not shown),,"athymic male mice, HepG2 xenograft",2 h,reference: tumour over muscle,tumour-to-tissue ratio,2.46 ± 0.74
CC(=O)[O-].CN1CCCN2CCN(C)CCCN(CC1)CC2.F[P-](F)(F)(F)(F)F.[Co+2],cyclic voltammetry,acetonitrile,,reference: SHE,irreversible oxidation potential,1.42 V
CC[C@H](C)[C@H](NC(=O)[C@H](CCCCN)NC(=O)CNC(=O)[C@H](CC(C)C)NC(=O)[C@@H](NC(=O)[C@H](C)NC(=O)[C@H](CCCCN)NC(=O)CNC(=O)[C@H](C)NC(=O)CNC(=O)[C@H](CCCCN)NC(=O)[C@H](CCSC)NC(=O)[C@H](CCCCN)NC(=O)[C@@H](NC(=O)[C@H](Cc1c[nH]c2ccccc12)NC(=O)[C@H](CC(C)C)NC(=O)[C@H](CCC(=O)O)NC(=O)[C@H](CCCCN)NC(=O)[C@H](CC(C)C)NC(=O)[C@@H](N)CC(C)C)[C@@H](C)O)C(C)C)C(=O)N[C@@H](CCCCN)C(=O)NCC(=O)N[C@@H](CC(C)C)C(=O)N[C@@H](CC(C)C)C(=O)O,acrylamide quenching,"PBS, no lipid","2 µM, together with: acrylamide",,Stern-Volmer constant,10.1 ± 1.15 M⁻¹
COc1cc(NC(=O)C(=O)c2c(C)n(Cc3ccc(Cl)cc3)c3ccc(C)cc23)ccn1,,"cynomolgus monkey, female, plasma","oral, 10 mg/kg",,CL/F,40.1 mL/min/kg and 30.5 mL/min/kg and 62.1 mL/min/kg and 43.5 mL/min/kg and 69.3 mL/min/kg
CC(C)C[C@H]1NC(=O)[C@H](NC(=O)CN)CSSC[C@H]2NC(=O)[C@H]3CSSC[C@H](C(=O)N[C@H](CC(N)=O)C(=O)N[C@H](Cc4ccccc4)C(=O)N[C@H](CO)C(=O)N[C@H](Cc4ccccc4)C(N)=O)NC(=O)[C@@H](CC(C)C)NC(=O)[C@@H](CCCCN)NC(=O)[C@@H](Cc4ccccc4)NC(=O)[C@@H](CC(C)C)NC(=O)[C@@H](CCCCN)NC(=O)[C@@H](CO)NC(=O)[C@@H](CSSC[C@@H](NC(=O)[C@@H](CCCCN)NC(=O)[C@@H](Cc4c[nH]c5ccccc45)NC(=O)[C@@H](Cc4c[nH]c5ccccc45)NC(=O)[C@@H](Cc4ccccc4)NC(=O)[C@@H](CCC(=O)O)NC1=O)C(=O)N[C@H](CC(N)=O)C(=O)N1CCC[C@@H]1C(=O)N[C@H](CC(N)=O)C(=O)N[C@H](CC(=O)O)C(=O)N[C@H](CC(=O)O)C(=O)N[C@H](CCCCN)C(=O)N3)NC(=O)[C@@H](CCCCN)NC(=O)[C@@H](CC(C)C)NC(=O)[C@@H](CCCCN)NC(=O)[C@H]1CCCN1C(=O)[C@@H](CCCNC(=N)N)NC2=O,,"D2.mdx mice, all tissues","dose not given, one week after dosing stopped",,concentration decrease,> 50%
COc1ccc(C)cc1NC(=O)OC1CC2CCCC(C1)N2Cc1ccc(CC[18F])cc1 (stereo not shown),,"BALB/c mice EMT6 tumour, lung","dose not given, 2 h",reference: initial activity,activity reduction,95%
CC[C@H](C)[C@H](NC(=O)[C@H](CCCCN)NC(=O)[C@H](CCCCN)NC(=O)[C@H](Cc1ccccc1)NC(=O)[C@H](CC(C)C)NC(=O)[C@@H](CCCCN)NC(=O)[C@H](Cc1c[nH]c2ccccc12)NC(=O)[C@H](CCCCN)NC(C)=O)C(=O)NCC(=O)N[C@@H](C)C(=O)N[C@H](C(=O)N[C@@H](CC(C)C)C(=O)N[C@@H](CCCCN)C(=O)N[C@H](CCCCN)C(=O)N[C@@H](CC(C)C)C(N)=O)C(C)C,circular dichroism,PE:PG:CL liposomes,"60 µM, lipid to peptide ratio 1",reference: reference peptide,helical content,~69%
COC(=O)C[C@H](NC(=O)[C@H](C)NC(=O)[C@@H](NC(=O)[C@H](CC(=O)OC)NC(=O)[C@@H](NC(=O)c1ccc2ccccc2n1)C(C)C)C(C)C)C(=O)COc1c(F)cccc1F,,rat pups,"1 mg/kg, 1 h",,PaO2,69.8 ± 2.24 mmHg
CCCCCCCC(=O)NC[C@H](NC(=O)[C@H](CO)NC(=O)CN)C(=O)N[C@@H](Cc1ccccc1)C(=O)N[C@@H](CC(C)C)C(=O)N[C@@H](CO)C(=O)N1CCC[C@H]1C(=O)N[C@@H](CCC(=O)O)C(=O)N[C@@H](Cc1c[nH]cn1)C(=O)N[C@@H](CCC(N)=O)C(=O)N[C@@H](CCCNC(=N)N)C(=O)N[C@H](C(=O)N[C@@H](CCC(N)=O)C(=O)N[C@H](C(=O)N[C@@H](CCCNC(=N)N)C(=O)N1CCC[C@H]1C(=O)N1CCC[C@H]1C(=O)N[C@@H](Cc1c[nH]cn1)C(=O)N[C@@H](CCCCN)C(=O)N[C@@H](C)C(=O)N1CCC[C@H]1C(=O)N[C@@H](Cc1c[nH]cn1)C(=O)N[C@H](C(=O)N[C@H](C(=O)O)C(C)C)C(C)C)C(C)C)C(C)C,,"mouse, plasma","intraperitoneal, 7.2 mg/kg",,AUC(0-inf),153 ng·h/mL
CC[C@H](C)C(=O)N1CCC(NC(=O)Nc2ccc(OC(F)(F)F)c(F)c2)CC1,,healthy volunteers,"oral, 0.5 mg single dose",,subjects with related TEAE,0%
COc1ccc(F)cc1S(=O)(=O)Nc1cnc2c(c1)C(=O)NCCO2,,"C57BL/6J mice, plasma","oral, 1 mg/kg",,AUC(0-inf),335 ± 76 ng·h/mL
CC[C@@H]1C[C@]1(NC(=O)[C@@H]1C[C@@]2(CN1C(=O)[C@@H](NC(=O)[C@@H](NC(=O)[C@@H]1CCCCN1C(C)C)C1CCCCC1)C(C)(C)C)C(C)(C)C21CCC1)C(=O)NS(=O)(=O)N1CCCC1,item: Nausea,human,"oral, 50 mg, together with: ritonavir 100 mg",,subjects with adverse event,0%
CCCCCCCCC=CCCCCCCCC(=O)OCC1OC(n2ccc(N)nc2=O)C(F)(F)C1O (stereo not shown),,"female nude mouse, colon xenograft, patient-derived colon tumour","oral, 50 mg/kg, dosed days 1 and 8",,body weight loss,0%
c1ccc(C2(CCNC3CCC4(SCCS4)c4ccccc43)CCOC3(CCCC3)C2)nc1 (stereo not shown),,"male CD-1 mouse, plasma","intravenous, 0.3 mg/kg",,clearance,81.9 mL/min/kg
O=c1c(Br)c2oc3c(CN(Cc4ccccn4)Cc4ccccn4)c(O)ccc3nc-2c2ccccc12,,aqueous buffer,"pH 7.0, Zn2+-saturated",,excitation maximum,535 nm
CCCCCCCCC1(CCCCCCCC)c2cc(-c3cc4[n+]5c(c3)-c3cccc[n+]3[Ir-3]536([c]5c(c(C)cc(C)c5-c5cccc[n+]53)-c3cccc[n+]36)[n+]3ccccc3-4)ccc2-c2ccc(-c3cc4[n+]5c(c3)-c3cccc[n+]3[Ir-3]536([c]5c(c(C)cc(C)c5-c5cccc[n+]53)-c3cccc[n+]36)[n+]3ccccc3-4)cc21.F[P-](F)(F)(F)(F)F.F[P-](F)(F)(F)(F)F.F[P-](F)(F)(F)(F)F.F[P-](F)(F)(F)(F)F,,acetonitrile,5 µM,reference: [Ru(bpy)3](PF6)2,singlet oxygen quantum yield,0.04
CC[C@H](C)[C@H](NC(=O)[C@H](CCC(=O)O)NC(=O)[C@H](CCC(=O)O)NC(=O)[C@H](Cc1ccccc1)NC(=O)[C@H](CC(=O)O)NC(=O)CNC(=O)[C@H](CC(N)=O)NC(=O)CNC(=O)CNC(=O)CNC(=O)CNC(=O)[C@@H]1CCCN1C(=O)[C@H](CCCNC(=N)N)NC(=O)[C@@H]1CCCN1C(=O)[C@H](N)Cc1ccccc1)C(=O)N1CCC[C@H]1C(=O)N[C@@H](CCC(=O)O)C(=O)N[C@@H](CCC(=O)O)C(=O)N[C@@H](Cc1ccc(O)cc1)C(=O)N[C@@H](CC(C)C)C(=O)O,LC-MS/MS,human plasma,"75 days, -80 °C, stability, nominal 30.0 ng/mL",,concentration,29.8 ± 0.3 ng/mL
CSCC[C@H](NC(=O)[C@H](Cc1c[nH]c2ccccc12)NC(=O)CNC(=O)[C@H](Cc1ccc(O)cc1)NC(=O)[C@H](C)NC(=O)[C@H](CCC(=O)O)NC(=O)[C@H](Cc1c[nH]cn1)NC(=O)[C@H](Cc1c[nH]cn1)NC(=O)[C@H](Cc1c[nH]cn1)NC(=O)[C@H](Cc1c[nH]cn1)NC(=O)[C@H](Cc1c[nH]cn1)NC(=O)[C@H](Cc1c[nH]cn1)NC(=O)CN1CCN(CC(=O)O)CCN(CC(=O)O)CCN(CC(=O)O)CC1)C(=O)N[C@@H](CC(=O)O)C(=O)N[C@@H](Cc1ccccc1)C(N)=O,,"MF1 nude mouse, male, HT29-CCK2R xenograft","intravenous, 0.2 µg, 4 h, 111In-labelled",reference: tumour over kidney,tumour-to-kidney ratio,0.08
CC(=CCC(O)C(C)=Cc1csc(C)n1)CC=CC(C)C(O)C(C)C(=O)C(C)(C)C(O)CC(=O)O (stereo not shown),,"human, plasma","intravenous infusion, 6.5 mg/m2 KOS-1584, 3 h infusion, cycle 1",,Tmax,3.58 ± 0.8 h
CC(C)[C@H](NC(=O)CNC(=O)[C@H](CCC(N)=O)NC(=O)[C@H](C)N)C(=O)O,,human,"intravenous infusion, 90 mg/kg/h, 2 h infusion",,subjects with any adverse event,66.7%
CC(CCC(=O)NCC(=O)O)C1CCC2C3C(O)CC4CC(OC5OC(C(=O)O)C(O)C(O)C5O)CCC4(C)C3CCC12C (stereo not shown),,"human, T/C genotype, plasma","dose not given, geometric mean, sex-adjusted",,glucuronide to parent ratio,0.118

# Excerpt of the above:
Compound,assay,system,setting,how to read,endpoint,value
CC(=CCC(O)C(C)=Cc1csc(C)n1)CC=CC(C)C(O)C(C)C(=O)C(C)(C)C(O)CC(=O)O (stereo not shown),,"human, plasma","intravenous infusion, 6.5 mg/m2 KOS-1584, 3 h infusion, cycle 1",,Tmax,3.58 ± 0.8 h
COc1ccc(C)cc1NC(=O)OC1CC2CCCC(C1)N2Cc1ccc(CC[18F])cc1 (stereo not shown),,"BALB/c mice EMT6 tumour, lung","dose not given, 2 h",reference: initial activity,activity reduction,95%
